Experimental data from different studies.
Each line is one published result; not all experiments were run side by side. ± marks the error that the study gave.
Fibroin-modulator-binding protein-1: Fibroin-modulator-binding protein-1 99-193 (Bombyx mori, UniProt Q5FBS0)
B1: UGT1A6 (Homo sapiens, UniProt P19224); chain DKLLVVPQDGSHWLSMKDIVEVLSDRGHEIVVVVPEVNLLLKESKYYTRKIYPVPYDQEELKNRYQSFGNNHFAERSFLTAPQTEYRNNMIVIGLYFINCQSLLQDRDTLNFFKESKFDALFTDPALPCGVILAEYLGLPSVYLFRGFPCSLEHTFSRSPDPVSYIPRCYTKFSDHMTFSQRVANFLVNLLEPYLFYCLFSKYEELASAVLKRDVDIITLYQKVSVWLLRYDFVLEYPRPVMPNMVFIGGINCKKRKDLSQEFEAYINASGEHGIVVFSLGSMVSEIPEKKAMAIADALGKIPQTVLWRYTGTRPSNLANNTILVKWLPQNDLLGHPMTRAFITHAGSHGVYESICNGVPMVMMPLFGDQMDNAKRMETKGAGVTLNVLEMTSEDLENALKAVINDKSYKENIMRLSSLHKDRPVEPLDLAVFWVEFVMRHKGAPHLRPAAHDLTWYQYHSLDVIGFLLAVVLTVAFITFKCCAYGYRKCLGKKGRVKKAHKSKTH
B2: enzyme (Listeria monocytogenes, UniProt A0A0H3GFM5); chain MAILTEDELRKAYLHTDLKTTKKLDIKKGTIITPSAKSFLSEKKIDLHYNDEIAETKVVVEPVKTETTRAKFQTIYGGALDEKPEHMTHLRGNLLVFKDHPQIAFRGKLDTLEAEILETQCSVAAEFKDLAEDLQEILTFVRNIVRAEVLNEQIESVNLLGMDEKELRERSHNPKKYYQMTHFMPDYTMGNAVIRLNKIRTMVRETELAAFLAFKEADYSIKRPDIIQALNRLSSLFWILMFRVRTNEYKK
Sequence of UniProt P06133 (whole entry, looked up): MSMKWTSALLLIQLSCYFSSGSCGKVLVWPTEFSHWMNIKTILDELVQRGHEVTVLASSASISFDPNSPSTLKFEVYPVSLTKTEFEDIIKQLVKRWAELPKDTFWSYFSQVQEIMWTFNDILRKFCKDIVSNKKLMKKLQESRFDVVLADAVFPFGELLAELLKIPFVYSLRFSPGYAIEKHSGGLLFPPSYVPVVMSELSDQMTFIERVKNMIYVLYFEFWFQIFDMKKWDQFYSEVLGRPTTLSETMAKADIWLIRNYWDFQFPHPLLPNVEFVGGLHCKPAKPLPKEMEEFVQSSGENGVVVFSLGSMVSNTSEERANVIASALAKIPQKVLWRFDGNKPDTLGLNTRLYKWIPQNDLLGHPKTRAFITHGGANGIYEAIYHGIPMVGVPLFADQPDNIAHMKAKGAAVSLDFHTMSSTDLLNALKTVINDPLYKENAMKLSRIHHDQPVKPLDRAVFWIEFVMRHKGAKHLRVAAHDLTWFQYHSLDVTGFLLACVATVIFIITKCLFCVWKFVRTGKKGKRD

Molecule	target or system	test	system	setting	scale	quantity	result
IMQLMPFGC	HLA class I histocompatibility antigen, A alpha chain, allele A*02:01 (Homo sapiens, UniProt P04439)	complex stability, off-rate	peptide	37 °C		half-life of peptide-HLA complex	2.2 h
GSGAGSETSV	human MAGI1-2/6 PDZ construct (MBP fusion)	automated holdup	peptide, crude extract	concentration not given, uncorrected, unit not given	reference: biotin control resin, higher = stronger binding	binding intensity	0.208
Ubiquitin fragment (Homo sapiens)		NMR, item: Lys27				pKa	11.1
AAGAAAGAAAGA (dsDNA)	Fibroin-modulator-binding protein-1	ITC	double-stranded DNA, one strand shown			Kd	3.61 ± 0.794 µM
ACEEQNPWARYLEWLFPTETLLLEL		ex vivo fluorescence imaging	peptide, BALB/c mice, 4T1 tumour-bearing, liver	intravenous, 5 nmol, 4 h post-injection	higher = more uptake	mean fluorescence intensity	624 ± 77.2 a.u.
recombinant human interferon gamma	ABCB1 (Homo sapiens, UniProt P08183)		enteroid monolayers	1 ng/mL, 48 h, together with: tariquidar 10 µM		digoxin efflux ratio	increased
UGT2B4 (Homo sapiens, UniProt P06133)	CC(C)=CCc1cc2c(cc1O)O[C@H](c1ccc(O)cc1)CC2=O	steady-state kinetics		pH 7.4		Vmax/Km	40.1 µL/min/mg
UGT1A4 (Homo sapiens, UniProt P22310)	CN1CCN(CCCN2c3ccccc3Sc3ccc(C(F)(F)F)cc32)CC1	steady-state kinetics		37 °C, not purified		Vmax/Km	47 µL/min/mg
KDECVIATEV	human MAGI1-2/6 PDZ construct (MBP fusion)	automated holdup	peptide, crude extract	concentration not given, corrected by standard peak, unit not given	reference: biotin control resin, higher = stronger binding	binding intensity	-0.0537
pegcetacoplan		item: respiratory, thoracic, mediastinal disorders	patients with PNH	dose not given, phase Ib trial		number of TEAEs	8
B1 (UGT1A6)	O=c1cc(C(F)(F)F)c2ccc(O)cc2o1	steady-state kinetics		37 °C, not purified		Vmax/Km	137 µL/min/mg
ACEQNPIYWARYADWLFTTPLLLLDLALLVDADEGT		ex vivo fluorescence imaging	peptide, BALB/c mice, 4T1 tumour-bearing, 4T1 tumour	intravenous, 5 nmol, 4 h post-injection	higher = more uptake	mean fluorescence intensity	5720 ± 1280 a.u.
AACGAACGAACG (dsDNA)	Fibroin-modulator-binding protein-1	ITC	double-stranded DNA, one strand shown			Kd	4.76 ± 0.956 µM
insulin degludec			human	subcutaneous, 0.4 IU/kg, 1 FC level, single dose, reference formulation		AUC0−∞	600 ± 88 ng·h/mL
ACDDQNPWRAYLDLLFPTDTLLLDLLW		ex vivo fluorescence imaging	peptide, BALB/c mice, 4T1 tumour-bearing	intravenous, 5 nmol, 4 h post-injection, background-corrected mean fluorescence	reference: tumour over muscle	contrast index	5.9 ± 0.9
insulin aspart		ELISA after PEG precipitation, item: free insulin aspart	human, type 1 diabetes, serum	subcutaneous, dose not given, least squares mean, single dose		onset of appearance	7.5 min
IMQLMPFGCLL	HLA class I histocompatibility antigen, A alpha chain, allele A*01:01 (Homo sapiens, UniProt P04439)	conformational ELISA	peptide	concentration not given	reference: positive control peptide, direction not given	binding score	0.5%
B2 (enzyme)	Nc1ncnc2c1ncn2[C@@H]1O[C@H](COP(=O)(O)OP(=O)(O)OP(=O)(O)O)[C@@H](O)[C@H]1O	steady-state kinetics		pH 7.5, 37 °C, KCl 500 mM, kcat per active site, positive cooperativity, together with: Ti(III) citrate		K0.5	4.4 µM

For quick reference, copied from above:
Molecule	target or system	test	system	setting	scale	quantity	result
AAGAAAGAAAGA (dsDNA)	Fibroin-modulator-binding protein-1	ITC	double-stranded DNA, one strand shown			Kd	3.61 ± 0.794 µM
ACEEQNPWARYLEWLFPTETLLLEL		ex vivo fluorescence imaging	peptide, BALB/c mice, 4T1 tumour-bearing, liver	intravenous, 5 nmol, 4 h post-injection	higher = more uptake	mean fluorescence intensity	624 ± 77.2 a.u.
recombinant human interferon gamma	ABCB1 (Homo sapiens, UniProt P08183)		enteroid monolayers	1 ng/mL, 48 h, together with: tariquidar 10 µM		digoxin efflux ratio	increased
